Experimental data gathered from unrelated publications.
Compare with care: the assays were run in different laboratories. ± marks the error that the study gave.

SMILES | test system | conditions | tissue uptake
N=C(N)NCCC[C@@H]1NC(=O)[C@H](CCCCNC(=O)CC[C@H](NC(=O)CCOCCOCCOCCOCCNC(=O)CN2CCN(CC(=O)O)CCN(CC(=O)O)CCN(CC(=O)O)CC2)C(=O)NCCCC[C@@H]2NC(=O)[C@@H](Cc3ccccc3)NC(=O)[C@H](CC(=O)O)NC(=O)CNC(=O)[C@H](CCCNC(=N)N)NC2=O)NC(=O)[C@@H](Cc2ccccc2)NC(=O)[C@H](CC(=O)O)NC(=O)CNC1=O [indium-111 labelled] | female athymic nude mice, liver | intravenous, 3 µCi, 4 h, U-87 MG glioma xenograft | 2.6 ± 0.37 %ID/g
CCCC[C@H](NC(=O)[C@H](Cc1cccs1)NC(=O)[C@H](Cc1c[nH]cn1)NC(=O)CCNC(=O)[C@@H](NC(=O)[C@H](C)NC(=O)[C@H](Cc1c[nH]c2ccccc12)NC(=O)[C@H](CCC(N)=O)NC(=O)[C@H](Cc1cccs1)NC(=O)CN1CCC(NC(=O)CN(CCN(CCN(CC(=O)O)CC(=O)O)CC(=O)O)CC(=O)O)CC1)C(C)C)C(N)=O [indium-111 labelled] | Swiss nu/nu mouse, male, PC-3 tumour xenograft, colon | intravenous, 10 pmol, 1 h | 2.5 ± 0.4 %ID/g
CSCC[C@H](NC(=O)[C@H](CC(C)C)NC(=O)[C@H](Cc1c[nH]cn1)NC(=O)CNC(=O)[C@@H](NC(=O)[C@H](C)NC(=O)[C@H](Cc1c[nH]c2ccccc12)NC(=O)[C@H](CCC(N)=O)NC(=O)CNC(=O)[C@H](CO)NC(=O)CNC(=O)CCCCCCCNC(=O)CCC(=O)Nc1ccc(CNC23CNCCNCC(N)(CNCCNC2)CNCCNC3)cc1)C(C)C)C(N)=O [copper-64 labelled] | female SCID mice, PC-3 xenograft, liver | intravenous, 0.6 MBq, 4 h | 2.96 ± 0.138 %ID/g
CCCC[C@H](NC(=O)CNC(=O)CNC(=O)c1ccc(NN)nc1)C(=O)N[C@H]1CC(=O)NCCCC[C@@H](C(N)=O)NC(=O)[C@H](Cc2c[nH]c3ccccc23)NC(=O)[C@H](CCCNC(=N)N)NC(=O)[C@@H](Cc2ccccc2)NC(=O)[C@H](Cc2c[nH]cn2)NC1=O [technetium-99m labelled] | C57 mouse, B16/F1 melanoma-bearing, brain | intravenous, 4 h | 0.03 ± 0.04 %ID/g
N=C(N)NCCC[C@@H]1NC(=O)[C@H](CCCCNC(=O)CNC(=O)CNC(=O)CNC(=O)CC[C@H](NC(=O)CNC(=O)CNC(=O)CNC(=O)c2ccc(NN=Cc3ccccc3S(=O)(=O)O)nc2)C(=O)NCC(=O)NCC(=O)NCC(=O)NCCCC[C@@H]2NC(=O)[C@@H](Cc3ccccc3)NC(=O)[C@H](CC(=O)O)NC(=O)CNC(=O)[C@H](CCCNC(=N)N)NC2=O)NC(=O)[C@@H](Cc2ccccc2)NC(=O)[C@H](CC(=O)O)NC(=O)CNC1=O [technetium-99m labelled] | athymic nu/nu mouse, female, MDA-MB-435 xenograft, blood | intravenous, 120 min | 0.38 ± 0.1 %ID/g
N=C(N)NCCC[C@@H]1NC(=O)[C@H](CCCCNC(=O)CCOCCOCCOCCOCCNC(=O)CN2CCN(CC(=O)O)CCN(CC(=O)O)CCN(CC(=O)O)CC2)NC(=O)[C@@H](Cc2ccccc2)NC(=O)[C@H](CC(=O)O)NC(=O)CNC1=O [indium-111 labelled] | female athymic nude mice, lungs | intravenous, 3 µCi, 0.5 h, U-87 MG glioma xenograft | 4.6 ± 0.39 %ID/g
CSCC[C@H](NC(=O)[C@H](CC(C)C)NC(=O)[C@H](Cc1c[nH]cn1)NC(=O)CNC(=O)[C@@H](NC(=O)[C@H](C)NC(=O)[C@H](Cc1c[nH]c2ccccc12)NC(=O)[C@H](CCC(N)=O)NC(=O)CCCCCNC(=O)CNC(=O)CNC(=O)CNC(=O)CSC(C)=O)C(C)C)C(N)=O [technetium-99m labelled] | nude mouse, PC-3 xenograft, stomach | 30 min | 0.94 ± 0.27 %ID/g
N=C(N)NCCC[C@@H]1NC(=O)[C@H](CC(=O)NC23CNCCNCC(N)(CNCCNC2)CNCCNC3)NC(=O)[C@@H](Cc2ccccc2)NC(=O)[C@H](CC(=O)O)NC(=O)CNC1=O [copper-64 labelled] | Nu/Nu mouse, male, tumour-bearing, bone | intravenous, 10 µCi, 2 h | 0.46 ± 0.22 %ID/g
N=C(N)NCCC[C@@H]1NC(=O)[C@H](CCCCNC(=O)CC[C@H](NC(=O)CCOCCOCCOCCOCCNC(=O)CC[C@H](NC(=O)CN2CCN(CC(=O)O)CCN(CC(=O)O)CCN(CC(=O)O)CC2)C(=O)NCCOCCOCCOCCOCCC(=O)N[C@@H](CCC(=O)NCCCC[C@@H]2NC(=O)[C@@H](Cc3ccccc3)NC(=O)[C@H](CC(=O)O)NC(=O)CNC(=O)[C@H](CCCNC(=N)N)NC2=O)C(=O)NCCCC[C@@H]2NC(=O)[C@@H](Cc3ccccc3)NC(=O)[C@H](CC(=O)O)NC(=O)CNC(=O)[C@H](CCCNC(=N)N)NC2=O)C(=O)NCCCC[C@@H]2NC(=O)[C@@H](Cc3ccccc3)NC(=O)[C@H](CC(=O)O)NC(=O)CNC(=O)[C@H](CCCNC(=N)N)NC2=O)NC(=O)[C@@H](Cc2ccccc2)NC(=O)[C@H](CC(=O)O)NC(=O)CNC1=O [indium-111 labelled] | female athymic nude mice, eyes | intravenous, 3 µCi, 72 h, U-87 MG glioma xenograft | 0.21 ± 0.12 %ID/g
